{"data": "Assay results gathered from unrelated publications", "organism": "Salmonella typhimurium", "note": "Protocols differ between the studies behind these lines. Several values in a cell are separate wells, animals, samples, runs or records. ± marks the error that the study gave."}
{"Structure (SMILES)": "O=NN1CCN(C2CCCC2)CC1", "assay": "mutagenicity, Ames plate incorporation", "test system": "TA98", "setting": "2500 µg/plate, 3 d, without S9, methanol", "measurement": "revertant colonies per plate", "value": "31 ± 3"}
{"Structure (SMILES)": "Nc1ccc2cc3ccccc3cc2c1", "assay": "Ames test", "test system": "TA1535", "setting": "0.4 µg/well, 48 h, with S9", "measurement": "revertant colonies", "value": "244 colonies/well and 200 colonies/well and 168 colonies/well"}
{"Structure (SMILES)": "O=[N+]([O-])c1ccc(N2CCC(NCCC(O)c3ccc(F)c4ccccc34)CC2)c(C(F)(F)F)c1 (stereo not shown)", "assay": "SOS/umu test", "test system": "TA1535/pSK1002, TGA medium", "setting": "0.000122 mg/mL, 4 h, with: 10% rat liver S9", "measurement": "survival", "value": "89%"}
{"Structure (SMILES)": "Nc1ccc2cc3ccccc3cc2c1", "assay": "Ames test, confirmatory", "test system": "TA98", "setting": "1.0 µg/plate, with: rat liver S9", "scale": "reference: solvent control", "measurement": "revertant ratio", "value": 10.6}
{"Structure (SMILES)": "COS(C)(=O)=O", "assay": "mini-Ames test", "test system": "TA102", "setting": "1.0 µL/well, without S9", "measurement": "revertants per well", "value": "> 600"}
{"Structure (SMILES)": "CN(N=O)c1ccc(F)cc1", "assay": "mutagenicity, Ames plate incorporation", "test system": "TA98", "setting": "50 µg/plate, 3 d, without S9, methanol", "measurement": "revertant colonies per plate", "value": "37.3 ± 8"}
{"Structure (SMILES)": "O=[N+]([O-])c1ccc(NC2CCNCC2)c(C(F)(F)F)c1", "assay": "genotoxicity, SOS/umu test", "test system": "TA1535/pSK1002", "setting": "0.002 mg/mL, 4 h, with S9, full range", "measurement": "induction factor", "value": 0.6}
{"Structure (SMILES)": "O=C(O)CCCOc1ccc(F)cc1-c1cc(-c2ccccc2C(F)(F)F)n(-c2ccccc2)n1", "assay": "Ames test", "test system": "TA98, TA100, TA1535, TA1537", "setting": "78.1 to 5000 µg/plate, without S9", "measurement": "mutagenicity", "value": "negative"}
{"Structure (SMILES)": "COc1cccc(-c2n[nH]c(SCc3ccccn3)n2)c1OC", "assay": "Ames test, plate incorporation", "test system": "TA100", "setting": "0.50 mg/plate, without S9", "measurement": "revertant colonies per plate", "value": 111}
{"Structure (SMILES)": "Fc1ccc(C2=CCNCC2)cc1", "assay": "SOS response, SOS/umu test", "test system": "TA1535/pSK1002", "setting": "0.001 mg/mL, 4 h, without S9 activation", "measurement": "umu induction factor", "value": 1.2}
{"Structure (SMILES)": "Cc1cc(C(=O)NC(C)(C)COc2cccc3c2C(N)=NS(=O)(=O)N3)cc(C)n1", "assay": "Ames test, initial", "test system": "TA98", "setting": "1.50 µg/plate", "scale": "reference: solvent control", "measurement": "revertant ratio", "value": 1.3}
{"Structure (SMILES)": "OC(CCN1CC=C(c2ccc(F)cc2)CC1)c1ccc(F)c2ccccc12 (stereo not shown)", "assay": "genotoxicity, SOS/umu test", "test system": "TA1535/pSK1002", "setting": "0.063 mg/mL, 4 h, with S9, lower range", "measurement": "induction factor", "value": 0.9}
{"Structure (SMILES)": "CNC(=O)c1c(N(C)N=O)ncn1C", "assay": "plate incorporation", "test system": "TA1535, water", "setting": "150 µg/plate, without S9", "measurement": "revertant colonies per plate", "value": "32 ± 3"}
{"Structure (SMILES)": "O=[N+]([O-])c1ccc(N2CCN(CCC(O)c3ccc(F)cc3)CC2)c(C(F)(F)F)c1 (stereo not shown)", "assay": "SOS response, SOS/umu test", "test system": "TA1535/pSK1002, TGA medium", "setting": "0.000488 mg/mL, 4 h, without S9", "scale": "reference: untreated", "measurement": "induction factor", "value": 0.9}
{"Structure (SMILES)": "Nc1c2ccccc2nc2ccccc12", "assay": "Ames test, confirmatory", "test system": "TA1537", "setting": "75 µg/plate", "scale": "reference: solvent control", "measurement": "revertant ratio", "value": 62.5}
{"Structure (SMILES)": "CC(=O)N1CCC(C(=O)N2CCN3C(=O)c4cc(-c5ccccc5)ccc4NC(=O)C3C2)CC1 (stereo not shown)", "test system": "TA1535", "setting": "50 µg/plate, with: rat liver S9", "measurement": "revertants per plate", "value": 16.5}
{"note": "For quick reference, copied from above:"}
{"Structure (SMILES)": "O=[N+]([O-])c1ccc(N2CCN(CCC(O)c3ccc(F)cc3)CC2)c(C(F)(F)F)c1 (stereo not shown)", "assay": "SOS response, SOS/umu test", "test system": "TA1535/pSK1002, TGA medium", "setting": "0.000488 mg/mL, 4 h, without S9", "scale": "reference: untreated", "measurement": "induction factor", "value": 0.9}
{"Structure (SMILES)": "COc1cccc(-c2n[nH]c(SCc3ccccn3)n2)c1OC", "assay": "Ames test, plate incorporation", "test system": "TA100", "setting": "0.50 mg/plate, without S9", "measurement": "revertant colonies per plate", "value": 111}
